Experimental data collected from several papers.
Each line is one published result; not all experiments were run side by side. ± marks the error that the study gave.

For `CC[C@H](C)[C@H](NC(=O)[C@H](CCCCN)NC(=O)CNC(=O)[C@@H](NC(=O)[C@H](Cc1c[nH]cn1)NC(=O)[C@H](Cc1c[nH]cn1)NC(=O)[C@@H](NC(=O)CNC(=O)[C@H](Cc1c[nH]cn1)NC(=O)[C@H](Cc1ccccc1)NC(=O)[C@H](CC(C)C)NC(=O)[C@H](CC(C)C)NC(=O)[C@H](CCCNC(=N)N)NC(=O)[C@H](Cc1ccccc1)NC(=O)[C@@H](N)Cc1ccccc1)C(C)C)C(C)C)C(=O)N[C@@H](CCCCN)C(=O)N1CCC[C@H]1C(=O)N[C@@H](CCCNC(=N)N)C(=O)N[C@@H](C)C(N)=O`, “chronic toxic concentration” read 5 µM (zebrafish embryos 4 hpf, E3 medium; 24 h).
The clearance of `CC(C)=CCC/C(C)=C/CCn1cc(CC(P(=O)(O)O)P(=O)(O)O)nn1` is reported as 5.6 mL/min/kg (CD-1 mouse, plasma; intravenous, 0.5 mg/kg, single dose).
Under “chronic toxic concentration”, `CC(C)C[C@H](NC(=O)[C@H](Cc1ccc(O)cc1)NC(=O)CNC(=O)CNC(=O)CNC(=O)[C@H](Cc1c[nH]cn1)NC(=O)[C@H](Cc1c[nH]cn1)NC(=O)[C@@H](NC(=O)CNC(=O)[C@H](Cc1c[nH]cn1)NC(=O)[C@H](Cc1ccccc1)NC(=O)[C@H](CC(C)C)NC(=O)[C@H](CC(C)C)NC(=O)[C@H](CCCNC(=N)N)NC(=O)[C@H](Cc1ccccc1)NC(=O)[C@@H](N)Cc1ccccc1)C(C)C)C(=O)N[C@@H](CC(N)=O)C(=O)N[C@@H](C)C(=O)N[C@@H](C)C(N)=O` is recorded as 25 µM (zebrafish embryos 28 hpf, E3 medium; 24 h).
`CC[C@H](C)[C@H](NC(=O)[C@H](Cc1ccc(O)cc1)NC(=O)[C@@H](NC(=O)[C@H](CCCNC(=N)N)NC(=O)[C@@H](N)CC(=O)O)C(C)C)C(=O)N[C@@H](Cc1c[nH]cn1)C(=O)N1CCC[C@H]1C(=O)O` gave a half-life of 30.9 ± 12.6 min (Beagle dogs, both sexes, plasma; subcutaneous, 10 mg/kg/day, day 0).
`CN[C@H](CC(C)C)C(=O)N[C@H]1C(=O)N[C@@H](CC(N)=O)C(=O)N[C@H]2C(=O)N[C@H]3C(=O)N[C@H](C(=O)N[C@H](C(=O)O)c4cc(O)cc(O)c4-c4cc3ccc4O)[C@H](O)c3ccc(c(Cl)c3)Oc3cc2cc(c3O[C@@H]2O[C@H](CO)[C@@H](O)[C@H](O)[C@H]2O[C@H]2C[C@](C)(NCc3ccc(-c4ccc(Cl)cc4)cc3)[C@H](O)[C@H](C)O2)Oc2ccc(cc2Cl)[C@H]1O` has a clearance of 2.17 mL/min/kg (mouse, plasma; intravenous, 75 mg/kg).
The ALT of `CC(C)[C@@H]1NC(=O)CNC(=O)[C@H](CC(N)=O)NC(=O)[C@H](CCCNC(=N)N)NC(=O)[C@H](Cc2ccc(O)cc2)NC(=O)[C@H](C(C)C)NC(=O)[C@@H](NC(=O)[C@@H](NC(=O)[C@H](CC(N)=O)NC(=O)[C@H](Cc2c[nH]c3ccccc23)NC(=O)[C@H](C)NC(=O)[C@H](Cc2ccccc2)NC(=O)CNC(=O)[C@H](CCCCN)NC(=O)[C@H](Cc2ccccc2)NC(=O)[C@H](Cc2ccccc2)NC(=O)[C@H](CCCCN)NC(=O)OCC2c3ccccc3-c3ccccc32)C(C)C)CSSC[C@@H](C(=O)N[C@@H](Cc2c[nH]cn2)C(=O)N[C@@H](CCCNC(=N)N)C(=O)N[C@@H](CCCNC(=N)N)C(=O)N[C@@H](C)C(=O)N[C@@H](CC(N)=O)C(N)=O)NC(=O)[C@H](C(C)C)NC(=O)[C@H](CCCNC(=N)N)NC1=O` is reported as 45.1 ± 1.53 IU/L (ICR mice, serum; intraperitoneal, 10 mg/kg, day 5).
For `COc1cccc2c1C(=O)c1c(O)c3c(c(O)c1C2=O)CC(O)(C(=O)CO)CC3OC1CC(NC(=O)OC2C=CCCC(C)(C(=O)NCC(=O)O)CC2)C(O)C(C)O1` (centres unmarked), the AUC(0.5-24 h) was 1420 ± 176 ng·h/mL (male Sprague Dawley rat, plasma; intravenous, 21.5 mg/kg/day doxorubicin equivalents, day 1).
With `Cc1ccccc1-c1ccc(-c2nc(-c3ccc(CN(C)CCCC(=O)O)c([18F])c3)no2)cc1C(F)(F)F` the tracer uptake was 0.61 %ID/g (rat, lung; 30 min).
`C[C@H](NCc1ccc(-c2ccc(C(F)(F)F)cc2)cc1)C(N)=O` gave a bioavailability of 123% (Sprague-Dawley rat, plasma; oral, 10 mg/kg).
With `COC(=O)[C@H]1[C@@H](c2ccc(Cl)c(Cl)c2)C[C@@H]2CC[C@H]1N2CCOc1c2ccccc2cc2ccccc12` the pKa was 5.4 (fluorometric titration; 1 µM, 10% DMSO).
`CC(CCC(=O)NCC(=O)O)C1CCC2C3C(O)CC4CC(OC5OC(C(=O)O)C(O)C(O)C5O)CCC4(C)C3CCC12C` (centres unmarked) has a plasma concentration of 118 ng/mL (human men; dose not given, SLCO1B1 *5/*14).
`COc1cnc2cccc(N3CCc4c(cc(Cn5ccnc5)cc4-c4cn(C)nc4C(F)(F)F)C3=O)c2c1` — result for “body weight change”: 9.8% (CD-1 mouse; intraperitoneal, 150 mg/kg once daily, day 5, dose-escalation tolerability; relative to: day 1).
`CCCCCCCCCCCCCCCC(=O)N[C@@H](CCC(=O)NCCOCCOCCC(=O)NCCOCCOCCC(=O)NCCCC[C@H](NC(=O)[C@H](CC(=O)O)NC(=O)[C@H](CC(C)C)NC(=O)[C@H](Cc1ccc(O)cc1)NC(=O)[C@H](CCCCN)NC(=O)[C@H](CO)NC(=O)[C@H](Cc1ccc(O)cc1)NC(=O)[C@H](CC(=O)O)NC(=O)[C@H](CO)NC(=O)[C@@H](NC(=O)[C@H](Cc1ccccc1)NC(=O)[C@@H](NC(=O)CNC(=O)[C@H](CCC(N)=O)NC(=O)[C@@H](CO)NC(=O)[C@@H](N)Cc1c[nH]cn1)[C@@H](C)O)[C@@H](C)O)C(=O)N[C@@H](CCCNC(=N)N)C(=O)N[C@@H](CCCNC(=N)N)C(=O)N[C@@H](C)C(=O)N[C@@H](CCC(N)=O)C(=O)N[C@@H](CC(=O)O)C(=O)N[C@@H](Cc1ccccc1)C(=O)N[C@H](C(=O)N[C@@H](CCC(N)=O)C(=O)N[C@@H](Cc1c[nH]c2ccccc12)C(=O)N[C@@H](CC(C)C)C(=O)N[C@@H](CC(C)C)C(=O)N[C@@H](CC(N)=O)C(=O)N[C@H](C(=O)NCC(=O)NCC(=O)N1CCC[C@H]1C(=O)N[C@@H](CO)C(=O)N[C@@H](CO)C(=O)NCC(=O)N[C@@H](C)C(=O)N1CCC[C@H]1C(=O)N1CCC[C@H]1C(=O)N1CCC[C@H]1C(=O)N[C@@H](CO)C(N)=O)[C@@H](C)O)C(C)C)C(=O)O` has a Tmax of 1 h (male rhesus monkey, plasma; subcutaneous, 60 µg/kg, day 28, median).
Under “blood to plasma ratio”, `CC(=O)NCCCC[C@@H]1NC(=O)[C@H](Cc2c[nH]c3c(C)cccc23)NC(=O)[C@H]([C@@H](C)O)NC(=O)[C@H](CC(N)=O)NC(=O)[C@@H](NC(C)=O)C(C)(C)SSC(C)(C)[C@@H](C(=O)N[C@@H](Cc2ccc(OCCN)cc2)C(=O)N[C@@H](Cc2ccc3ccccc3c2)C(=O)NC2(C(=O)N[C@@H](CCC(=O)O)C(=O)N[C@@H](CC(N)=O)C(=O)N[C@@H](Cc3cccnc3)C(=O)N(C)CC(N)=O)CCOCC2)NC1=O` is recorded as 0.61 ± 0.09 (dog, blood; 0.0013 µM, 2 h).
`COc1cc2ncnc(Oc3ccc(Nc4nccc5[nH]cc(-c6ccc(F)cc6)c(=O)c45)cc3F)c2cc1OC` gave an AUC of 12900 µg·h/mL (rat, Sprague-Dawley; oral, 20 mg/kg/day, 28-day repeat dose, MTD).
The SUVmean of `CC[C@H](C)[C@H](NC(=O)[C@H](CCCCN)NC(=O)CNC(=O)[C@H](CC(C)C)NC(=O)[C@H](Cc1ccccc1)NC(=O)[C@H](CCCCN)NC(=O)[C@H](CO)NC(=O)[C@H](Cc1ccccc1)NC(=O)[C@H](Cc1c[nH]c2ccccc12)NC(=O)[C@H](CCC(N)=O)NC(=O)[C@@H](NC(=O)[C@H](Cc1ccccc1)NC(=O)CCCCCNC(=O)CN1CCN(CC(=O)O)CCN(CC(=O)O)CCN(CC(=O)O)CC1)C(C)C)C(=O)N[C@@H](CCC(=O)O)C(=O)N1CCC[C@H]1C(=O)N[C@@H](CC(=O)O)C(=O)N[C@H](C(=O)N[C@@H](CO)C(=O)N[C@@H](CCC(N)=O)C(=O)N[C@H](C(=O)N[C@@H](CCC(N)=O)C(=O)N[C@@H](CC(=O)O)C(=O)N1CCC[C@H]1C(=O)N[C@@H](CC(N)=O)C(=O)N[C@@H](CC(=O)O)C(=O)N[C@@H](CCC(N)=O)C(=O)N[C@@H](Cc1ccc(O)cc1)C(=O)N[C@@H](CCC(=O)O)C(=O)N1CCC[C@H]1C(=O)N[C@@H](Cc1ccccc1)C(=O)O)C(C)C)C(C)C` [copper-64 labelled] is reported as 0.67 SUV (dynamic PET; mouse both sexes, CT26 tumour, checkpoint inhibitor-treated, tumour; intravenous, 100 µCi/mouse, 30 s).
`O=C1NC2(CC2)COc2ncc(F)cc2[C@H]2COCCN2c2ccn3ncc1c3n2` gave an eosinophil percentage of 1.02 ± 0.46% (Sprague-Dawley rats, male, blood; oral, 2.5 mg/kg/day, end of recovery, 4-week subacute toxicity).

A few entries again:
The ALT of `CC(C)[C@@H]1NC(=O)CNC(=O)[C@H](CC(N)=O)NC(=O)[C@H](CCCNC(=N)N)NC(=O)[C@H](Cc2ccc(O)cc2)NC(=O)[C@H](C(C)C)NC(=O)[C@@H](NC(=O)[C@@H](NC(=O)[C@H](CC(N)=O)NC(=O)[C@H](Cc2c[nH]c3ccccc23)NC(=O)[C@H](C)NC(=O)[C@H](Cc2ccccc2)NC(=O)CNC(=O)[C@H](CCCCN)NC(=O)[C@H](Cc2ccccc2)NC(=O)[C@H](Cc2ccccc2)NC(=O)[C@H](CCCCN)NC(=O)OCC2c3ccccc3-c3ccccc32)C(C)C)CSSC[C@@H](C(=O)N[C@@H](Cc2c[nH]cn2)C(=O)N[C@@H](CCCNC(=N)N)C(=O)N[C@@H](CCCNC(=N)N)C(=O)N[C@@H](C)C(=O)N[C@@H](CC(N)=O)C(N)=O)NC(=O)[C@H](C(C)C)NC(=O)[C@H](CCCNC(=N)N)NC1=O` is reported as 45.1 ± 1.53 IU/L (ICR mice, serum; intraperitoneal, 10 mg/kg, day 5).
For `COc1cccc2c1C(=O)c1c(O)c3c(c(O)c1C2=O)CC(O)(C(=O)CO)CC3OC1CC(NC(=O)OC2C=CCCC(C)(C(=O)NCC(=O)O)CC2)C(O)C(C)O1` (centres unmarked), the AUC(0.5-24 h) was 1420 ± 176 ng·h/mL (male Sprague Dawley rat, plasma; intravenous, 21.5 mg/kg/day doxorubicin equivalents, day 1).
`CC(CCC(=O)NCC(=O)O)C1CCC2C3C(O)CC4CC(OC5OC(C(=O)O)C(O)C(O)C5O)CCC4(C)C3CCC12C` (centres unmarked) has a plasma concentration of 118 ng/mL (human men; dose not given, SLCO1B1 *5/*14).
